{"data": "Results collected from several papers", "note": "Parts stem from different laboratories: compare values within a part only. Changes are numbered by the printed parent chain.", "chain of UniProt Q96GD4 (whole entry, looked up)": "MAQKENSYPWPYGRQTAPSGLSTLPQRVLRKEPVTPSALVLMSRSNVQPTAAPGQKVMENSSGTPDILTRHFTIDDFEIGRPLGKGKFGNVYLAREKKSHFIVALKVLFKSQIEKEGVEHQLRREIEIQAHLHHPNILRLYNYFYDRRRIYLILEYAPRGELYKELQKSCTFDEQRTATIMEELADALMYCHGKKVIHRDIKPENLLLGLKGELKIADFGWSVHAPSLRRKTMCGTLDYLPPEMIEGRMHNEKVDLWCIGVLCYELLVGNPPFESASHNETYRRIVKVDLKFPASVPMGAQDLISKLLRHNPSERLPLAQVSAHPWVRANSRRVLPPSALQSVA", "chain of UniProt P10721 (whole entry, unmodified, looked up)": "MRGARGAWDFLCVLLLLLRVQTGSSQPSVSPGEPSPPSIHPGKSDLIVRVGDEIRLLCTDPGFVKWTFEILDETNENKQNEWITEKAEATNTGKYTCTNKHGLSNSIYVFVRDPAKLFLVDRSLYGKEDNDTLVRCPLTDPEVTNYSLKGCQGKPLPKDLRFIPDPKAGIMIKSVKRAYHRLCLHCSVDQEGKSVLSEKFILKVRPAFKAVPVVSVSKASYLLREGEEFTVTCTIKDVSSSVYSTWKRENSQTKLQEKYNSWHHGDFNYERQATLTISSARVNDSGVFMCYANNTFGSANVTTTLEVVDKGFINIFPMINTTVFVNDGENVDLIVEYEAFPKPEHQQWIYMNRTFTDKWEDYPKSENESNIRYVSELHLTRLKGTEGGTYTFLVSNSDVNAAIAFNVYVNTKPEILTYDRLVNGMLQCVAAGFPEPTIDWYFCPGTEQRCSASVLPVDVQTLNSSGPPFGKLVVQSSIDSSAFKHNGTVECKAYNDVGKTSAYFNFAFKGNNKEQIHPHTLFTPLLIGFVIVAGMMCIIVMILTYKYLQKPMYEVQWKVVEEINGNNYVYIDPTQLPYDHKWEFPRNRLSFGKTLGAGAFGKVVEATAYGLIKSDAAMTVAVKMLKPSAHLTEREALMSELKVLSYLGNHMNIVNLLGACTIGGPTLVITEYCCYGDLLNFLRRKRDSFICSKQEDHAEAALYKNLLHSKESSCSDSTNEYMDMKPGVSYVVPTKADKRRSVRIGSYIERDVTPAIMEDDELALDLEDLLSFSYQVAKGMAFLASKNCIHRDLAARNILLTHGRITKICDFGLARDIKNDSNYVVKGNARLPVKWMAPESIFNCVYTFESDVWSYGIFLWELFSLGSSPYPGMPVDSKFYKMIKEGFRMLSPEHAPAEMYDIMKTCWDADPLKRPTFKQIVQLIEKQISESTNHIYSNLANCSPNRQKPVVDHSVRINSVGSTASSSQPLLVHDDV", "chain of UniProt Q9Y6M4 (whole entry, looked up)": "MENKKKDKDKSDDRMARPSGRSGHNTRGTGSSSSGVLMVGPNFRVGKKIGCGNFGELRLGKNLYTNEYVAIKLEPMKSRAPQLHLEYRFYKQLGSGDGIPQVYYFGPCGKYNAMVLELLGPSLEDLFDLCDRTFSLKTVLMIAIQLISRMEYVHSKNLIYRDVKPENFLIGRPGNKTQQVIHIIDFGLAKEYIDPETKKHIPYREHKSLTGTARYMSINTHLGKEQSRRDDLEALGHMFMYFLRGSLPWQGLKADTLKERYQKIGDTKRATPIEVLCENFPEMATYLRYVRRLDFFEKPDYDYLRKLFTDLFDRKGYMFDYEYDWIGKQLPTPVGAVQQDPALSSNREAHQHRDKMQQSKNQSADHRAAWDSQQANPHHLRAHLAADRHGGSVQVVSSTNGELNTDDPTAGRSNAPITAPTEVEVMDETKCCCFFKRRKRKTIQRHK", "chain of UniProt Q16513 (whole entry, looked up)": "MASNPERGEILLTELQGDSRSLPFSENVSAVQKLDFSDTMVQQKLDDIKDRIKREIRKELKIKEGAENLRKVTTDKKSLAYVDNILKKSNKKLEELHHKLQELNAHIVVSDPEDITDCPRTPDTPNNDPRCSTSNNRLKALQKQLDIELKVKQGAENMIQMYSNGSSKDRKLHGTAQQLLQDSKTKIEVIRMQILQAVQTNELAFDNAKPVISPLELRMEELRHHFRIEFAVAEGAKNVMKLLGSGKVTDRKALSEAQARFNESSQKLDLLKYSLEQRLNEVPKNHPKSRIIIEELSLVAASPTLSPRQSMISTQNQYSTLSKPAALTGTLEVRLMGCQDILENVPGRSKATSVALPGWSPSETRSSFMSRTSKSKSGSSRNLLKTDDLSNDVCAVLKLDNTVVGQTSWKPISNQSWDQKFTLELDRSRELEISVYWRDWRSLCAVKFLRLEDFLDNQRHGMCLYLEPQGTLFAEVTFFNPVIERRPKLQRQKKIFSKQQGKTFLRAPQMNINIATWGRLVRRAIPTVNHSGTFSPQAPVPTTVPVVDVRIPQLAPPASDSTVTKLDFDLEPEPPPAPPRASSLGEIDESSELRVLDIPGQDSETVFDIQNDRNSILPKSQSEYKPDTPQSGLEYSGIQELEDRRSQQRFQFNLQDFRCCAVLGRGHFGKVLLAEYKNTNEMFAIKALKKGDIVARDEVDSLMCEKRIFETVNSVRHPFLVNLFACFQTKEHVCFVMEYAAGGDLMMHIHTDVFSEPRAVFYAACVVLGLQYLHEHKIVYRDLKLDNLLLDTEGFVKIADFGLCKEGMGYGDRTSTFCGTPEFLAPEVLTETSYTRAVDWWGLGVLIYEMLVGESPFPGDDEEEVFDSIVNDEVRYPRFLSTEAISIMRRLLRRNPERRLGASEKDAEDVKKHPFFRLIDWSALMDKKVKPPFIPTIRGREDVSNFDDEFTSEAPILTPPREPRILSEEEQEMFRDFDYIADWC", "chain of UniProt Q9BXA7 (whole entry, looked up)": "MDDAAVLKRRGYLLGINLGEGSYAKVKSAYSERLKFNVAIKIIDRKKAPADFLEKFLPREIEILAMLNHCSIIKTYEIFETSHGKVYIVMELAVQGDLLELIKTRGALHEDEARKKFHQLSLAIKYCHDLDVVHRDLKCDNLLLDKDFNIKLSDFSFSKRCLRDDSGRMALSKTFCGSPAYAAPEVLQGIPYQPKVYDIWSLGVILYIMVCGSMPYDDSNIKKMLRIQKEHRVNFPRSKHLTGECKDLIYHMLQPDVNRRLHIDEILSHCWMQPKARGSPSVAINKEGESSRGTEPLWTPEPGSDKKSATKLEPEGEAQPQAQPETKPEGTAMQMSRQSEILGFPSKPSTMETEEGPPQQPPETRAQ"}
{"data": "Series 1", "target": "Protein kinase C beta type, isoform beta-I (PRKCB, Homo sapiens, UniProt P05771)", "effect on": "enzyme activity", "action": "inhibitor", "concentration": "0.5 µM", "baseline": "control", "chain of UniProt P05771 (whole entry, looked up)": "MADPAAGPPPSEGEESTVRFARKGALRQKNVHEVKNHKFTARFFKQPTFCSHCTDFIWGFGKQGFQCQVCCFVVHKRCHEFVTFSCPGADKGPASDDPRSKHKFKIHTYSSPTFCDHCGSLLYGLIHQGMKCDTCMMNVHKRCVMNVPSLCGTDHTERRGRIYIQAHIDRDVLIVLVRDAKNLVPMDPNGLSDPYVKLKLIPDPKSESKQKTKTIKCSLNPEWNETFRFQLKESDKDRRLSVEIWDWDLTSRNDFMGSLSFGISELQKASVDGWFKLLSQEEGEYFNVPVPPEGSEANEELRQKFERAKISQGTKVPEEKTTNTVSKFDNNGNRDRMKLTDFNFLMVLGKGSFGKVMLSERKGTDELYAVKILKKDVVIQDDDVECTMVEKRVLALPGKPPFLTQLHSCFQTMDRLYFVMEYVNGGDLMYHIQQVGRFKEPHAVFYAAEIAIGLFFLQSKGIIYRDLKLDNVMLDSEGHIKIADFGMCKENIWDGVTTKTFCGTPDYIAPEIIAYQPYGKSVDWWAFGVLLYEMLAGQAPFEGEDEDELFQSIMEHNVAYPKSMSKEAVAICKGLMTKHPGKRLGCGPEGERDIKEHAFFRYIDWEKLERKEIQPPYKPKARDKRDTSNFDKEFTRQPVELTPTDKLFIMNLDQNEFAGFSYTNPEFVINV"}
{"SMILES": "Nc1ncnc2n[nH]c(Nc3ccc(F)cc3)c12", "remaining activity": "95.9%"}
{"SMILES": "O=C1NC(=O)c2cc(Nc3ccc(F)cc3)c(Nc3ccc(F)cc3)cc21", "remaining activity": "28.2%"}
{"SMILES": "C#Cc1cccc(Nc2ncnc3cc(OCCOC)c(OCCOC)cc23)c1", "remaining activity": "92.4%"}
{"SMILES": "COc1cc2ncnc(Nc3ccc(Oc4ccccc4)cc3)c2cc1OC", "remaining activity": "109%"}
{"SMILES": "Cc1ccc(Nc2nccc(N(C)c3ccc4c(C)n(C)nc4c3)n2)cc1S(N)(=O)=O", "remaining activity": "91%"}
{"SMILES": "OCC(O)CCON=C1C(c2c(O)[nH]c3ccccc23)=Nc2ccccc21 (stereo not drawn)", "remaining activity": "93.6%"}
{"SMILES": "O=S(=O)(c1cccc2cnccc12)N1CCCNCC1", "remaining activity": "94.6%"}
{"SMILES": "N#CC(C#N)=C(N)/C(C#N)=C/c1ccc(O)cc1", "remaining activity": "114%"}
{"SMILES": "Cc1cccc(-c2[nH]c(C(C)(C)C)nc2-c2ccc3c(c2)OCO3)n1", "remaining activity": "82.5%"}
{"data": "Series 2", "SMILES": "COCCOc1nc(-c2ccc(Cl)nc2)nc2c1CN(C(=O)c1ncn3ccccc13)CC2", "effect on": "cell-free assay", "method": "competition with immobilised ligand", "concentration": "0.1 µM"}
{"target": "Aurora kinase B (AURKB, Homo sapiens, UniProt Q96GD4)", "remaining binding": "97%"}
{"target": "PKN2 (Homo sapiens, UniProt Q16513)", "remaining binding": "55%"}
{"target": "TSSK1B (Homo sapiens, UniProt Q9BXA7)", "remaining binding": "100%"}
{"target": "CSNK1G3 (Homo sapiens, UniProt Q9Y6M4)", "remaining binding": "100%"}
{"target": "KIT (Homo sapiens, UniProt P10721, D816V)", "remaining binding": "100%"}
{"data": "Series 3", "target": "ATF3, bZIP domain (human)", "method": "DHFR protein complementation", "medium": "yeast", "notes": "single substitutions, most at no-binding floor", "baseline": "wild-type JUN-FOS pair", "reading": "higher = stronger binding", "parent": "JUN, bZIP domain (human); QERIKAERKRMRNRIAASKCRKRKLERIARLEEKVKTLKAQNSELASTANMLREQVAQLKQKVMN; partner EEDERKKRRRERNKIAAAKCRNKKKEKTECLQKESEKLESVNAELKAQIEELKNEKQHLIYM"}
{"Substitution": "E44M", "binding fitness": "-0.191 natural log"}
{"Substitution": "E44Q", "binding fitness": "-0.14 natural log"}
{"Substitution": "K34E", "binding fitness": "-0.321 natural log"}
{"Substitution": "E32D", "binding fitness": "-0.271 natural log"}
{"Substitution": "Q55A", "binding fitness": "-0.248 natural log"}
{"Substitution": "Q55V", "binding fitness": "-0.286 natural log"}
{"Substitution": "A49N", "binding fitness": "-1.04 natural log"}
{"Substitution": "N42I", "binding fitness": "-1.11 natural log"}
{"data": "Series 4", "target": "Histone acetyltransferase KAT6A, both winged helices, GST fusion (KAT6A, Homo sapiens, UniProt Q92794, residues 1-181)", "method": "protein binding microarray", "form": "double-stranded DNA, one strand shown", "medium": "in vitro", "concentration": "not given", "notes": "8-mer, flanks averaged, mean of 2 arrays, mostly near background", "baseline": "not given", "reading": "higher = stronger binding", "Residues (chain)": "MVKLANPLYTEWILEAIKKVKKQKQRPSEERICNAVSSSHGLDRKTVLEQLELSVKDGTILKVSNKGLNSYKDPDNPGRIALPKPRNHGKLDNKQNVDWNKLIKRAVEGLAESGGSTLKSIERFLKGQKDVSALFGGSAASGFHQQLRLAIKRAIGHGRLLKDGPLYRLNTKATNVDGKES"}
{"Oligonucleotide": "CTTAAGAC", "E-score": 0.12}
{"Oligonucleotide": "TAGAAATA", "E-score": -0.198}
{"Oligonucleotide": "CCACGGAG", "E-score": 0.148}
{"Oligonucleotide": "ACTTGACA", "E-score": -0.154}
{"Oligonucleotide": "CCAAGACG", "E-score": -0.0245}
{"Oligonucleotide": "CTGGAAGC", "E-score": -0.093}
{"Oligonucleotide": "ACTAGTCC", "E-score": 0.0215}
{"Oligonucleotide": "GAAACTGA", "E-score": 0.0212}
{"note": "Repeated from above (series 3):"}
{"Substitution": "E32D", "binding fitness": "-0.271 natural log"}
{"Substitution": "N42I", "binding fitness": "-1.11 natural log"}
{"Substitution": "Q55V", "binding fitness": "-0.286 natural log"}
{"Substitution": "E44M", "binding fitness": "-0.191 natural log"}
{"Substitution": "Q55A", "binding fitness": "-0.248 natural log"}
